# Results pooled from the literature.
# Protocols differ between the studies behind these lines.
# Organism: Enterobacter cloacae
Compound,test,test system,conditions,quantity,result
O=[N+]([O-])c1cc2cc3ccc4oc([N+](=O)[O-])cc4c3cc2o1,REMA,,,MIC90,> 32 µg/mL
CCCCCCCCCC(=O)N[C@@H](Cc1c[nH]c2ccccc12)C(=O)N[C@H](CC(N)=O)C(=O)N[C@@H](CC(=O)O)C(=O)N[C@@H]1C(=O)NCC(=O)N[C@@H](CCCN)C(=O)N[C@@H](CC(=O)O)C(=O)N[C@H](C)C(=O)N[C@@H](CC(=O)O)C(=O)NCC(=O)N[C@H](CO)C(=O)N[C@@H]([C@H](C)CC(=O)O)C(=O)N[C@@H](CC(=O)c2ccccc2N)C(=O)O[C@@H]1C,,clinical isolate,,MIC,inactive
CCc1c([N+](=O)[O-])oc2ccc3ccccc3c12,REMA,,,MIC90,1 µg/mL
CS(=O)(=O)Nc1ncn(-c2cc(F)c(COc3ccc(OS(=O)(=O)F)cc3)c(F)c2)n1,,,,MIC,> 50 µM
Cn1c(=O)ccc2ccc(F)c(CCNC[C@H]3CN(c4cnc5c(n4)NC(=O)CO5)C(=O)O3)c21,,,,MIC90,1 µg/mL
CC[C@H](C)CCCCC(=O)N[C@@H](CCN)C(=O)N[C@H](C(=O)N[C@@H](CCN)C(=O)N[C@H]1CCNC(=O)[C@H]([C@@H](C)O)NC(=O)[C@H](CCN)NC(=O)[C@H](CCN)NC(=O)[C@H](CC(C)C)NC(=O)[C@@H](CC(C)C)NC(=O)[C@H](CCN)NC1=O)[C@@H](C)O,,BNCC 185928,,MIC,> 64 µg/mL
COc1ccc2c(ccc3oc([N+](=O)[O-])c(C)c32)c1,REMA,,,MIC90,> 32 µg/mL
CC1=C[C@@H]2CN(C(=O)N2OS(=O)(=O)O)[C@@H]1C(N)=O,,"ATCC 2468, NDM-positive",compound alone,MIC,> 128 µg/mL
CC[C@H](C)[C@H](NC(=O)[C@H](C)NC(=O)[C@H](CCCCN)NC(=O)[C@H](CC(C)C)NC(=O)[C@H](C)NC(=O)[C@@H](NC(=O)[C@H](Cc1c[nH]cn1)NC(=O)[C@H](CC(C)C)NC(=O)[C@@H](NC(=O)[C@@H](NC(=O)[C@H](CCCCN)NC(=O)[C@H](C)NC(=O)[C@H](C)NC(=O)[C@H](CO)NC(=O)[C@H](CCCCN)NC(=O)[C@H](Cc1ccccc1)NC(=O)[C@@H](NC(=O)[C@H](CCCCN)NC(=O)[C@H](CC(C)C)NC(=O)[C@H](Cc1ccccc1)NC(=O)[C@H](CO)NC(=O)[C@H](CCCCN)NC(=O)[C@H](Cc1c[nH]c2ccccc12)NC(=O)[C@H](CCCCN)NC(C)=O)[C@@H](C)O)[C@@H](C)O)C(C)C)[C@@H](C)O)C(=O)N[C@@H](CO)C(=O)N[C@@H](CO)C(N)=O,,,geometric mean,MIC,4 µg/mL

# Excerpt of the above:
Compound,test,test system,conditions,quantity,result
CCc1c([N+](=O)[O-])oc2ccc3ccccc3c12,REMA,,,MIC90,1 µg/mL
